Experimental data collected from several papers.
Every numbered part comes from another study and shows a few of its results, in no order.

Series 1
Target: RING finger protein unkempt homolog, zinc fingers 1-6, GST-SBP tag (UNK, Homo sapiens, UniProt Q9C0B0, residues 30-357)
UniProt Q9C0B0, sequence (30-357, looked up): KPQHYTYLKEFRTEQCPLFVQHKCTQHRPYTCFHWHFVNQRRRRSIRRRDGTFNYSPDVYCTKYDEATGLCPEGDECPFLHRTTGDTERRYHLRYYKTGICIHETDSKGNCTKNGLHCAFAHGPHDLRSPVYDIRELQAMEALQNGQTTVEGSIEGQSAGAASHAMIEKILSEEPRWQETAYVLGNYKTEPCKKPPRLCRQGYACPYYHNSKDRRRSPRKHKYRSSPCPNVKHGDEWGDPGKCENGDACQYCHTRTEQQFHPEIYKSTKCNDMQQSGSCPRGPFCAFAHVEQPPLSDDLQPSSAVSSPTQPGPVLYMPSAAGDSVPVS
Method: RNA Bind-n-Seq
Molecule type: RNA
Medium: in vitro
Tested at: not given
Notes: RNA with constant flanks, ends assumed
Baseline: input RNA pool
Direction: higher = stronger binding
Measurement: bound/input enrichment
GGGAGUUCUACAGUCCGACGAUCAAAUUUAAAAAUUCUUUCUGUUGUACAGAAUUAAAUGAGGAAAACAAACAAUCUCAUUCGUUCCGUUUGCAGACUCCUUGUUCAAAAGGUAGUGAAUUAAGAACAAUUAAUAAGAUUUCUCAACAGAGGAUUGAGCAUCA: 1.58 ratio
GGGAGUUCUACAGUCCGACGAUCGUGGCUGAGUACGAUGCCUAUUUUGAGGAGGUUAAACAAGAGAUCAAUCAAAGGCUGACCCUCCGUGACUUCCUGAUCAAGCCCAUUCAGAGAAUAACAAAGUACCAGCUGCUACUCAAGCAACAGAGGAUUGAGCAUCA: 0.135 ratio
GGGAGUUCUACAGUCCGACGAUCGUUACAGGUCCUGGUGGUGUUCCAGUUCAAGGCAGUAAAUAUGCAGCAGACCGUAACCAUUACCGACGCUAUCCACGUCGUAGGGGUCCUCCACGCAAUUACCAGCAAAAUUACCAGAAUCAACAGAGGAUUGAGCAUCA: 0.229 ratio
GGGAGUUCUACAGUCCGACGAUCUUUGGUGUUAUCCGGUCACUUAUGGCGUUUAGGCUAACAGGUGGCACCAAAGACUACAUUGCCGUUGGCAGUGACUCAGGCCGGAUUGUUAUCUUGGAAUACCAGCCAUCAAAGAAUAUGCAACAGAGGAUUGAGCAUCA: 0.801 ratio
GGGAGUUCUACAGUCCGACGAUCUUGUGUAGAAGAUGGACUCUGAAAGACAUUCCAAGAGUGCCGCGGCAGCAUGGGAGCCUCUCCGUGAUUGUGUCAGUAUUAUUGUGGAAGAUUGCCUUUGCUGUUGUAUGUAAAGUUUCACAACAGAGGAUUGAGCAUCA: 0.138 ratio
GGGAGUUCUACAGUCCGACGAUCAUUUCCAUGGGACUUACAAGGAGCAUGCAGAUUGUCCCUUUAGACAAGCAGAUCACAAUCACCGACAGUCCAUGCCUAAUUAUCUCACCUUGUAACUCCCCCACUGCACUUGCCCUUCGGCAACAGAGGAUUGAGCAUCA: 0.167 ratio
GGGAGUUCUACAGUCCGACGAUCUUCGUGCAGUUUGCUUCACAGGAAAUAGCUGAAAAGGCUCUAAAGAAACACAAGGAAAGAACCGGGCACAGGUAUAUUGAAAUAUUUAAGAGCAGUCGAGCUGAAGUUAGAACUCAUUAUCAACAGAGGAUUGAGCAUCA: 0.874 ratio
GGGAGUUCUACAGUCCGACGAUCAUGGCUUGGAUGAUAUUAAGGACCGUUCGACACUUGGAGAGAAAUUGGGAGGCAAUGCCGCCGUUUCACUUGAAGGAAAACCAUUAUAAAAUGACAGUCAAGUGCCAUCUGGAUCUUAAGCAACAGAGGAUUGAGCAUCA: 0.152 ratio
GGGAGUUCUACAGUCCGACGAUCACUGAUUACAAAUCACCAUCAGCUGAUGACAAAGGGCAGCCAUCUGACCCCAGCCAAUCCCGUUUCACAGGUCUUUUGAAGAGAAUGGAACAAAGAGGUGUUAUAAAAAGGGUGACAUUACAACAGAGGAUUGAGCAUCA: 0.136 ratio
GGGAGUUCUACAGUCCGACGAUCUGGGAUGCCUCCACAGAUGCACCUGAAAAGUCUUCUCUCUUUCACCAAGGAGGAAGAAGCCGUACUUUCCUGUCACAUAGCUUAAGUAACCAGGCCGGUGUUCACCAGUCUCUAGUAAGUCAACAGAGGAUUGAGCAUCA: 0.329 ratio
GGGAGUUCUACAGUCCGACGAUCAAUAUCAUGCAGGUUUUUAUAUACUGCCUGGAACAACUGAGCACCAAGCCUGAUGCAGACACCGAUACUACUCAUCUUUCUGUUGAUGUUUCUUCUCCUGAUUUGUUUGGAAGCAUCCAUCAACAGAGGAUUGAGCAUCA: 0.157 ratio

Series 2
Target: Ras GTPase-activating protein-binding protein 1, RRM domain (G3BP1, Homo sapiens, UniProt Q13283)
UniProt Q13283, sequence (whole entry, looked up): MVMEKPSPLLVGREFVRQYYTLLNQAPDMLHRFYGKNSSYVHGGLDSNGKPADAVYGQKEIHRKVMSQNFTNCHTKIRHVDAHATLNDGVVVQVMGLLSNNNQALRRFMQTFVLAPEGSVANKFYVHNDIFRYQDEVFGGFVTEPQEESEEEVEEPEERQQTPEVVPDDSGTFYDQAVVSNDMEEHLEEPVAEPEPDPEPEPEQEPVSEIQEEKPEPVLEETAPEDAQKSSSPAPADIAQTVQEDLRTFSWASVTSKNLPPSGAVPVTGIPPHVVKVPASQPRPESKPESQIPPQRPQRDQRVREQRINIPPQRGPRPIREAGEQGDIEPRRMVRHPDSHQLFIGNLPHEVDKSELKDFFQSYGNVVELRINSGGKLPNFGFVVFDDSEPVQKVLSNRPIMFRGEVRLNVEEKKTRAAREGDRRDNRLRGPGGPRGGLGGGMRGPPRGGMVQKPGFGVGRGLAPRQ
Method: RNA Bind-n-Seq
Molecule type: RNA
Medium: in vitro
Tested at: 1 µM
Notes: whole 134-nt RNA, ends assumed
Together with: 150 mM KCl
Baseline: input library
Direction: higher = stronger binding
Measurement: log2 enrichment
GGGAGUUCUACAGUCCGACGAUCUCAAGUCCUGUGCUACACAUCGUAUGUACCGAAUCGGCCCGGCCCGGGGCCCGGAAAGUAUUAUGUUACGCCGUUCGGAUCUGCACUUCCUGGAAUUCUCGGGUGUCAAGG: -0.524
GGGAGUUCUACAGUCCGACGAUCUCAAGUCCUGUGCUACACAUCGUAUGUACCGAAUCGGAAAGGAAAAAGGAAAGGAAAGUAUUAUGUUACGCCGUUCGGAUCUGCACUUCCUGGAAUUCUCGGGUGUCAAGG: -0.132
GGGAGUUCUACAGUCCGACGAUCCAAGUCCUGUGCUACACAUCGUAUGUACCGAAUCGGGGUUUGGGGAGGGGUGGGGAAAGUAUUAUGUUACGCCGUUCGGAUCUGCACUUCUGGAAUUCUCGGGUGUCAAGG: 0.972
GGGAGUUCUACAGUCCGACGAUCUGGGAGGUGGAUUUUGUUUAUUUUUUUAGCUCAUUUCCAGGGGUGGGAAUUUUUUUUUUAUAUGUGUCAUGAAUAAAGUUGUUUUUGAAAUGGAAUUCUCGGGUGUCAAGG: 1.84
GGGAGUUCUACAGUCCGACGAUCUCCUGUGCUACACAUCGUAUGUACCGAAUCGGGGUUUUUGGGGUGGGGUUUUUUUGGGGAAAGUAUUAUGUUACGCCGUUCGGAUCUGCAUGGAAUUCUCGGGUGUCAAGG: 0.72
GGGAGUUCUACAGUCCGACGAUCCCUGUGCUACACAUCGUAUGUACCGAAUCGGAAAAAAAGGGAAAAAAAGGGGAAAAAAAGGAAAGUAUUAUGUUACGCCGUUCGGAUCUGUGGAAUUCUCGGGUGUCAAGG: -0.00719
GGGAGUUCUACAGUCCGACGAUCAGUCCUGUGCUACACAUCGUAUGUACCGAAUCGGGCCCCGGGGCCCCGGGCCCCGGGAAAGUAUUAUGUUACGCCGUUCGGAUCUGCACUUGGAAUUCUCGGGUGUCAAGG: -1.33
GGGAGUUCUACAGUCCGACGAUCAGUCCUGUGCUACACAUCGUAUGUACCGAAUCGGGUUUUUGGGUUUUUGGGUUUUUGGAAAGUAUUAUGUUACGCCGUUCGGAUCUGCACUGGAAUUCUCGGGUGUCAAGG: -0.137
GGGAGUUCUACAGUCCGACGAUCUGGAGCACAGGGCGAGCUCUCCUCCGCCCUGCAGCCUCAGGUAAGGAUCCGGACCUUCACUGCUGCCCCAACUGGGGCUCCUCAGCUCGGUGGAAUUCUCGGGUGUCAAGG: -0.62
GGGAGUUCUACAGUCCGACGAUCAAGUCCUGUGCUACACAUCGUAUGUACCGAAUCGGGGUGGGGUUUUUGGGGAGGGGAAAGUAUUAUGUUACGCCGUUCGGAUCUGCACUUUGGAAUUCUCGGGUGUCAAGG: 0.969

Series 3
Target: RNA binding protein fox-1 homolog 2, RRM domain, GST-SBP tag (RBFOX2, Homo sapiens, UniProt O43251-10, residues 100-194)
Method: RNA Bind-n-Seq
Molecule type: RNA
Medium: in vitro
Tested at: 365 nM
Notes: natural RNA segment, single round, ends assumed
Baseline: no-protein control
Direction: higher = stronger binding
Measurement: RBNS enrichment (R)
Target sequence (chain): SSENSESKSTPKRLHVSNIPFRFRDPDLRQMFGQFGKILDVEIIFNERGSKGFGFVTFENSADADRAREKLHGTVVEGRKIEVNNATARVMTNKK
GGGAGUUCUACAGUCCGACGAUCGACAAGCAGUUUAAGUUAUUUAUUUGUUAAUGCUGGCUGUGGAAACCCCAGUUCUAGGGGGCAGAAACAGGACAUUUACAUCUAGUAGGGGCUGCAAGAGCAAAGAGGAAUGGAAUUCUCGGGUGCCAA: 0.447
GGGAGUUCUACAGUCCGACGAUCAUCUAUAUUGAUAUCAGAAAAUACUUGUUUUUUAAAGAUAUAUUGAUGUAUGAUAAAGAUGAUCUAAUUUGUGAAUGCAUAUGUGUGCGUGGUUACUUUUUAUAAUGUGAUGGAAUUCUCGGGUGCCAA: 0.55
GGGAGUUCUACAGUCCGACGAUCUGACUCUCGUGCACAGACAGCAUGCAGCAUACAGACUGAAACUGUGCUCUGCCGAGUAGAAAGUAGGUAGGGUCUGAAGGUGUCGAGAAGGCCUUACCUGUGGUGUGACAUGGAAUUCUCGGGUGCCAA: 3.33
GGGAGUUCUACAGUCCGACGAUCGAAACACCUGCCACUCUAGAUAGUUAGUGUGAGGGAUCCAGGCUUGUGUGAGGGGAAUAAUGUGGAAAGCUGAGGUCUAAUUGUGGUGACGUUAGCUGUCCCAGGCCACAUGGAAUUCUCGGGUGCCAA: 0.757
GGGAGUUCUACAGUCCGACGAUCCUGUGUUUUCAAGGUAAAUGGUCACUCUACAUUUAUAAACACAGGUCUGAUUGUACUUGAGGUAUAAGAAAAUCUAUGAGGAAACAAGAUUUCCCUAUAACCCUAUAAUUUGGAAUUCUCGGGUGCCAA: 0.39
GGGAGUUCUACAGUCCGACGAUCGAAAGUUCCACUAAACGGUAUUUGCUCUUGUGAUAUGUGGCACAUUGUGAUAUUUUCUUAGUCUGUUCUGUUUUAUUUAAAAAAUAAAACUGCUGAUCAAGACAAGUGAAUGGAAUUCUCGGGUGCCAA: 0.315
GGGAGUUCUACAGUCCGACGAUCAUUCCUGAGAAAUGUCCAACUGCUAGGAGUCUGACCAAAUUACAGAUGUGUGCCAUACUCUGGUUCUUAGAGUUCCAGAGCUCCUUCAUUGGUUUUAAUAAACUCUAAGGUGGAAUUCUCGGGUGCCAA: 0.505
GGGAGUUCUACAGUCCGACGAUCCUUCUGAUACACUCUCAUCUUGAUCAUAUUUUAAAUCAAGCGUUUUCCUGUAGCUGUCAAGUGGUCUCCAGCAGUUCACUCCAUCAUGUUGCACAGUACUAAGAGACUCAUGGAAUUCUCGGGUGCCAA: 0.37
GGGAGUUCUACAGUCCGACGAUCAUGGAGAUUCCUAAGAUUGGUGGAGUUGGGCAAUGCAUAGCCAUCUGACUCCUUCAGGGUGCUCUUGAUGGGCUGGCUGUAAGGGAGACUCAGUCCCAGCCUCUCCCCUCUGGAAUUCUCGGGUGCCAA: 0.238

Series 4
Target: Interferon regulatory factor 7, full length, phosphomimetic (IRF7, Homo sapiens, UniProt Q92985, residues 1-503, S471D/S472D/S475D/S476D/S477D/S483D/S484D/S487D)
Method: protein-binding microarray
Molecule type: double-stranded DNA, one strand shown
Medium: in vitro
Tested at: 2200 nM top
Notes: 60-bp whole probe
Together with: salmon DNA 0.4 mg/ml
Baseline: random background probes
Direction: higher = stronger binding
Measurement: fitted relative affinity
Shared flanks, not repeated: GCCTAGCAC … GTCTTGATTCGCTTGACGCTGCTG
Residues (chain): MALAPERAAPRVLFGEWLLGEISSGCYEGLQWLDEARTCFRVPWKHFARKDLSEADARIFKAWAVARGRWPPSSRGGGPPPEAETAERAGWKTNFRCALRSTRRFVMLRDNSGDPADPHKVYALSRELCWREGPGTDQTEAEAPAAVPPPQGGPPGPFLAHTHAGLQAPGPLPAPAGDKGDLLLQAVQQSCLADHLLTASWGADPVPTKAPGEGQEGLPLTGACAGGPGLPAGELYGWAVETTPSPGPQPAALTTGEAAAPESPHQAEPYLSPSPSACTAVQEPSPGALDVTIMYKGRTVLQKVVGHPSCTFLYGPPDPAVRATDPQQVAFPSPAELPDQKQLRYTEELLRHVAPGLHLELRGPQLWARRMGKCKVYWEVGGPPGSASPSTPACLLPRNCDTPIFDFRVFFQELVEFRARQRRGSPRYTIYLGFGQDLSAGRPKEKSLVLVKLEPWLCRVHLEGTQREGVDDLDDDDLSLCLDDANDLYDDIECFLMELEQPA
GGCGGACTGCTTATCCTGACGTGCTAG: -0.338 z-score
GAGGGTATCGGTCTCGGGACGTGCTAG: -0.522 z-score
TTAGATTTCGGGTTTCGACTAGTGCTA: 4.96 z-score
TTAGGTATCCATCTCCTTTAGTGCTAG: 0.904 z-score
GAATCTCCCATTATATTTTAGTGCTAG: 1.32 z-score
TTAGGTCTCAGACTGGATTAGTGCTAG: -0.409 z-score
GACGATTGCGGGTTTCGAGACGTGCTA: 1.89 z-score
GTAGATCTCAGTATCGATTAGTGCTAG: 0.333 z-score
TCATCAACCAGTTTTCTTACTGTGCTA: 0.917 z-score
GACGGTCTCGGTCTCGGGTCGTGCTAG: 0.318 z-score
TCAACCATCTCATATAAAACTGTGCTA: 0.0828 z-score
TTCCTTCTTGAACTCTTTACGTGCTAG: 2.52 z-score
TTTTTTTTCCTAATTGAACCGTGCTAG: 1.73 z-score
GACGAAGTGGGGTATCGAGACGTGCTA: 0.0451 z-score
TTAAAACTGAGACTGGATTAGTGCTAG: -0.996 z-score
GACAGTCTCCTTTTCCTGACGTGCTAG: 1.8 z-score
GGCGATATCAGTTTCGAGACGTGCTAG: 3.16 z-score
GAGGTTTTCTAATGTTTTTTAGTGCTA: 0.204 z-score
TTAGATCTCCGACTGGATTAGTGCTAG: 0.121 z-score
ATCATTTTCTCTGTTCTAGAGTGCTAG: 2.57 z-score
TTGGGACTGCTACTGCTTTAGTGCTAG: 0.079 z-score
TTAGGCTCCGGTTTCGGTTAGTGCTAG: 6.14 z-score
GACGGTATCGGGTTTCAGGACGTGCTA: 0.529 z-score
TTAGGTTGCGGTTTCGGTTAGTGCTAG: 6.97 z-score
TTAGTTATCGGACTGGGTTAGTGCTAG: 0.574 z-score
